# Measured values from different studies.
# Parts stem from different laboratories: compare values within a part only.

# Block 1 — method: RNA Bind-n-Seq; molecule type: RNA; sample: in vitro; tested at: 1 µM; setting: whole 134-nt RNA, ends assumed; with: 150 mM KCl; baseline: input library; reading: higher = stronger binding
# Target: Ras GTPase-activating protein-binding protein 1, RRM domain (G3BP1, Homo sapiens, UniProt Q13283)
# Chain of UniProt Q13283 (whole entry, looked up): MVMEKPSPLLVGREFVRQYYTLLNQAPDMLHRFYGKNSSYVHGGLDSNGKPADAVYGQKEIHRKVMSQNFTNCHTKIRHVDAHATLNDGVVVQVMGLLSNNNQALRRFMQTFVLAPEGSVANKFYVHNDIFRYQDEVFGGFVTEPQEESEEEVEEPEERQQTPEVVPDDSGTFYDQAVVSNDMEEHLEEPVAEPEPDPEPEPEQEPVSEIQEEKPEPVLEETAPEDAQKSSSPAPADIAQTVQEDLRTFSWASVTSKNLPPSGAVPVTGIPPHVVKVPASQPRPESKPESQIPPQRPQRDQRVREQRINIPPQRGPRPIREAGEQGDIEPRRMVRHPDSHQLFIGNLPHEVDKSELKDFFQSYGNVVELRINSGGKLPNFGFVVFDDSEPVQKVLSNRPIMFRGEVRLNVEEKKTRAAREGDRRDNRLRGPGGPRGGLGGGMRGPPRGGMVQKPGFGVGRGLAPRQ
# Shared flanks, not repeated: GGGAGUUCUACAGUCCGACGAUC … UGGAAUUCUCGGGUGUCAAGG
Sequence,log2 enrichment
CAAGUCCUGUGCUACACAUCGUAUGUACCGAAUCGGGUUUUUUUGGGAGGGAGGGAAAGUAUUAUGUUACGCCGUUCGGAUCUGCACUUC,0.562
AAGUCCUGUGCUACACAUCGUAUGUACCGAAUCGGUUUUGGGUUUUGGGUUUUGGGGAAAGUAUUAUGUUACGCCGUUCGGAUCUGCACU,-0.0571
GAUGAUUACUAUGGUUAUGAUUAUCACGACUAUCGUGGAGGCUAUGAAGAUCCCUACUACGGCUAUGAUGAUGGCUAUGCAGUAAGAGGA,-0.154
CAAGUCCUGUGCUACACAUCGUAUGUACCGAAUCGGGGUUUGGUUUGGUUUGGGGAAAGUAUUAUGUUACGCCGUUCGGAUCUGCACUUC,-0.342
GUCCUGUGCUACACAUCGUAUGUACCGAAUCGGGGUUUGGGGUUUUUUUGGGGAGGGGAAAGUAUUAUGUUACGCCGUUCGGAUCUGCAC,1.08
UGGCCCUGGUGGCAUGCGGGGAGGAAGAGGUGGACUCAUGGAUCGUGGUGGUCCCGGUGGAAUGUUCAGAGGUGGCCGUGGUGGAGACAG,0.7
AGUCCUGUGCUACACAUCGUAUGUACCGAAUCGGUUUGGAAAAAAAGGAAAAAAAGGAAAGUAUUAUGUUACGCCGUUCGGAUCUGCACU,0.0649
CCUGUGCUACACAUCGUAUGUACCGAAUCGGGGAAAAAAAGGGGAGGGGUUUUUUUGGGGAAAGUAUUAUGUUACGCCGUUCGGAUCUGC,0.523
UGGGAGGUGGAUUUUGUUUAUUUUUUUAGCUCAUUUCCAGGGGUGGGAAUUUUUUUUUAAUAUGUGUCGUGAAUAAAGUUGUUUUUGAAA,1.76
UCCUGUGCUACACAUCGUAUGUACCGAAUCGGGCCCCCCGGGCCCCCCGGCCCCCCGGGAAAGUAUUAUGUUACGCCGUUCGGAUCUGCA,-0.365
CUGUGCUACACAUCGUAUGUACCGAAUCGGGGAAAAAAAGGGGUUUGGGGAAAAAAAGGGGAAAGUAUUAUGUUACGCCGUUCGGAUCUG,0.75
CUCAAGUCCUGUGCUACACAUCGUAUGUACCGAAUCGGGAGGGAGGGUUUGGGAAAGUAUUAUGUUACGCCGUUCGGAUCUGCACUUCCA,0.793
UGGUUUGAGUCCAGCCAAUGACACUGGAGCCAAAAAGAAGAAAAAGAAACAAAAAAAGAAGAAAGAAAAAGGCAGUGAGACAGAUUCAGC,0.236
ACCAUGCAGGUGGGCAUCCUUGGGAAGUGGGGCAAGGGGGGGAUAGGGAGGGGGGUAACACUUUGGGAACAGGUGGUCCCAGGUCGUUUC,-0.457

# Block 2 — method: RNA Bind-n-Seq; molecule type: RNA; sample: in vitro; tested at: not given; setting: RNA with constant flanks, ends assumed; baseline: input RNA pool; reading: higher = stronger binding
# Target: RING finger protein unkempt homolog, zinc fingers 1-6, GST-SBP tag (UNK, Homo sapiens, UniProt Q9C0B0, residues 30-357)
# Chain of UniProt Q9C0B0 (30-357, looked up): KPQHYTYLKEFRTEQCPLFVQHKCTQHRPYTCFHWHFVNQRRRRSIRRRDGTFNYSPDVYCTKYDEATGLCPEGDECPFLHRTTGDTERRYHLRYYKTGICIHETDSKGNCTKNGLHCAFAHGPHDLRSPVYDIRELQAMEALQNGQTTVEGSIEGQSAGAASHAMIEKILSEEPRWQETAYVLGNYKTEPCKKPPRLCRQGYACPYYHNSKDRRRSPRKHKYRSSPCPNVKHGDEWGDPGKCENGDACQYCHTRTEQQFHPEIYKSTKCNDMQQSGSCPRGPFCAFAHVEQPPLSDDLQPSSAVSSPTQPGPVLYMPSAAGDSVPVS
# Shared flanks, not repeated: GGGAGUUCUACAGUCCGACGAUC … CAACAGAGGAUUGAGCAUCA
Sequence,bound/input enrichment
CAGCCUUAAGCACAAUUAAUUAAGAGUGAAACGUAAUUGUACAAGCAGUUGGUCACCCACCACCGGGCAUGAUCAACACCGCAACCUUUCCUUUUUCCCCCAGUGAUUCUGAAAAACCCC,0.208 ratio
AAGCUCCCAGUGUGGGUGGUGGAGGAUCAUCAGGAGGUUCUACCCUUUAUAUACCGGGCCACCGGCUCAAAGCAUCUUCCUGCCAGUAAUGUAAGUUUUUUACAUUUCGACUCACAUCCA,0.161 ratio
GAGAGAGAAAAACUCGUGAAAGCUGAAAGAAAAUUCAUUGAAGAUAGGGUUAAAAAAAUAACCGAACUGAAAAGGAAAGUCUGUGGCGAUUCAGAUAAAGGAUUUGUUGUUAUUAAUCAA,0.42 ratio
UGGCAUAAACUCUCUGCUGACAACAUGGACCCAGACUUUGUGGAGAGACGACGCGUGGGCUCCGAAAACUUCCUCUUGAGGGUUGCUUCACAUCCUGUCCUUUGUAGAGACAAAAUCUUC,0.204 ratio
GUACGAGUUGAAUGGAUCGCAGCAGUUACCAUUGCUGCUGGGACAGCUGCAAUUGGUUAUCCCGCUUACAAAAGAUUUUAUGUUAAAGAUCAUCGAAAUAAAGCUAUGAUAAACCUUCAC,0.176 ratio
AGGAGCCAGGAGAGGCGGGCGGGUCCCUAACGCUCGCAUUUGGGUAAAAGUCGCACGGAGCCGCAGCGUCUGUUCUGCACCAACUCAGAGUCUUGUUGGAGCUUUAUCCCUUUGUCCUAG,0.117 ratio
CUCCUGUCUCGAUUUACUCGAAAUGAGUUUAAUCUGGAAAGCAAGAGUACCAUUGGAGCCGAGUUUGCAACAAGAAGCAUCCAGGUUGAUGGGAAAACAAUAAAGGCACAGAUAUGGGAC,0.152 ratio
AGAUGCAGAGAAAGGGACUCAGAUGAUACUUGUAGGCAGCAUAAUACGUCAAAAAGUCCAUUCCGGGAAAUGGAACCUUUGUUGUCACCACACCAUGAUAAACUCAUGUCUUUGCCAGUU,0.204 ratio
UUUGCAAAUUAUAUUGCCAGAGACACACGUCGCCUUGGCGCAACAAUACUAGACCGUAUACACCGUCUUCAAAUUAAUAGCAGUUUGAGCACCUACUCUCUCGUAGACUCUGUUGGAAAU,0.565 ratio
UCUCUGUUCAGCUGUUAAUGCUGGGAUCCAUAUUUAGUUUUAUAAGCUUUUCCCUGUUUUCCGUUUUGUUUUGGGUUUUUUGGCUCAUGAAUUUUAUUUCUGUUUGUCGAUAAGAAAUGU,25.1 ratio
UAAGAAUUGGAAGAAUUGUGUAGGAGGCAGUAGUCAAAAAGUAGAAGCAGUUUGGAAGAGCCGUUACAAAUAUCAAGAGCCAGGUGGCUAAAAGGUGGAGCUAUAGGUCAUUGAAGCUCA,3.57 ratio

# Block 3 — method: RNAcompete; molecule type: RNA; sample: in vitro; tested at: 20 nM; setting: 7-mer, probes averaged, single round; baseline: mean of 7-mers; reading: higher = stronger binding
# Target: PABPC1L2, full length, GST fusion (mouse, UniProt A0ABA7IW68)
# Construct (chain): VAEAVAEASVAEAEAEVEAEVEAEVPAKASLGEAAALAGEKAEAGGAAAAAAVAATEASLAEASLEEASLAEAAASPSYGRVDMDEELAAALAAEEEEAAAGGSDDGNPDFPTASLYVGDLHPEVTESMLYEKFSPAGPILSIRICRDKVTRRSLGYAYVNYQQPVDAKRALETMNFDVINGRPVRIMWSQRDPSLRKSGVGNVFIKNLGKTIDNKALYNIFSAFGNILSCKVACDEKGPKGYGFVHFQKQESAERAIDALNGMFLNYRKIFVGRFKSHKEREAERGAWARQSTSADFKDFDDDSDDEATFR
Sequence,7-mer Z-score
GCCAAGC,-0.307
GCAUAGU,-0.258
CUCGCAG,-0.324
CCAUAUA,-0.179
UCAAUGG,-0.0101
UGUGGGU,-0.0482
CCUCGGU,-0.336
AAAGACU,1.29
CUUUGUA,-0.349
AGAGAUG,0.0116
UUCCAUC,-0.4
UUAAUGU,-0.18
GGUUAGA,0.102
CCCUAUG,-0.441
GGGGAUC,0.305
AAGGACU,0.269
UUUGGCU,-0.262
CGUCUCC,-0.432
CGGCGUG,-0.124
CGUUCCG,-0.411
UCAGGAU,-0.012
ACUGUUG,-0.199
GCCCGGC,-0.315
UUUCGGA,-0.137
UGCCCUU,-0.369

# Block 4 — method: RNA Bind-n-Seq; molecule type: RNA; sample: in vitro; tested at: 365 nM; baseline: no-protein control; reading: higher = stronger binding
# Target: RNA binding protein fox-1 homolog 2, RRM domain, GST-SBP tag (RBFOX2, Homo sapiens, UniProt O43251-10, residues 100-194)
# Setting: natural RNA segment, single round, ends assumed
# Shared flanks, not repeated: GGGAGUUCUACAGUCCGACGAUC … UGGAAUUCUCGGGUGCCAA
# Target sequence (chain): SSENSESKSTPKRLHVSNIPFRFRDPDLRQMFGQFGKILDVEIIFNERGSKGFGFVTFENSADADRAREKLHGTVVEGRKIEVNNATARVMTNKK
Sequence,RBNS enrichment (R)
GUCCUCCGAGGACCGGAACACGUUUCUGCGACCCGGGGCUCUGGCCAGCACUGUGUUCUGCGUUUGGUCUCAUACCUGCGUCUACCUUCCAUCUGUGUCCAGCGGCCCCG,0.24
AGUAAAUAAAAUACAUAUUUGACAGCCCCCUCAUCCCCCAGAACAAUCCCUCAAAGGCUACCCUACCCGUGAUACCUUCUGGGAGGGGCGGAGUCACCGAGACUGAGAUG,0.27
GUAUGCAUAUGUAUGGGUGUGUGUGUGUGCGCGCAAUCAAACUGUGGUGUAAAUAGAUUCUCAGUGAAUUCUGGUAUUCAGACUCUAUUCCACUAGUGAAAGAACCAUUU,0.596
GCAAAUUAUUCUUUUUCCAGAAUUUCCCCCAAACAACUUAGAAUUCCAUAAGUAGAACAAGAUAGAUUCUACCCCCAAAAUAUUCAUAAGCAAAUCCCACUGCCCUUAAA,1.01
UGGGACCGACUUUGUUUCUUUGUUAUUUAUGAUCUUGUUUAAAGAAAAUAAAUAUCUCCCAACCUUUUUUGUCUGAGGAGCUGUCCUUACUUUGCUGAUCUGGCUAGGAA,0.564
UUUGAGGACUCAUUAGUUGGCAGGUCACAGUUGUUUGAAGUCACUAUGGGUCAUAGUGACUCUGGAGAGGUCCUGGCAGCCCUGAGGAUGUGGAAACCACUAGGGGGCUC,0.438
UCCUAACCUCUUCUGGAAACACCCUAGCAUGUUUUCCCAGCUAGCUGGGUAUCCGUUCACCCAACCAAGACGACCAUGCAAUCAACCAUCACACUUAAAUGUUUUUGUUU,1.1
CAGUUAUCAGUAAUUCCUGCCCAGAAGACUUUUAUUUAUUUUUUUUUAAGAUAAAAACUGCACAAAAGGGGAGUGAGAGAGACUAGUUUCCACAUCCUUCCCUCCUUUAG,0.47
CUUCUAUCAAAUACCUUAUUUUACCUUACAGAUAUUUGUUGCACAGGCAGAUACUGCUGUAUUUAGACAUUUCUAUUUCAGUUCAUUAAAAACUGCAAAACCAAUCUGUA,0.382
AGGAUUUACACAACUUUAAAGGGAAGAUAAAUGAACAUCAGAUUUCUAGGUAUAGAACUAUGUUAUUGAAAGGAAAAGGAAAACUGGUGUUUGUUUCUUAGACUCAUGAA,2.25
UUUUCUGGGCAAAGCAUGGCCCCUUUUCCCCAGGACAAAGGGAACAGUUGGUGUCUGGGAAGGUAUUGAACGCUCCUCACCCUGUGCCCGAAGAGACCCGGAACCAAGAC,0.379
ACACAAGAAAAAAAAAUAUCCUGGGCAAUAAAAAUUACUUUAAACCAGCUCCAGAGCCGCUCUUUUCCUAAGCCUCCUGUGCCGCCUUCAGUUUGUAGGAGGCAGCCUGU,0.698

# Excerpt of the above (block 3):
Sequence,7-mer Z-score
GCCAAGC,-0.307
CUUUGUA,-0.349
AAGGACU,0.269
ACUGUUG,-0.199
GCCCGGC,-0.315
CGUUCCG,-0.411
CCCUAUG,-0.441
GGGGAUC,0.305
AGAGAUG,0.0116
CCUCGGU,-0.336
